Measured values pooled from the literature.
Each numbered part is a random draw from the data of one study; scales do not carry over between parts. Substitutions count along the parent as printed.

Block 1
Cell line: HEK-293T
Read-out: pseudovirus infection
Technique: FDA-approved drug library counter-screen
Organism: VSV pseudotyped with VSV-G
Concentration: 10 µM
Time: 16 h
Reference: vehicle-treated
SMILES	GFP-positive cells [%]
CCOc1ccccc1OCCN[C@H](C)Cc1ccc(OC)c(S(N)(=O)=O)c1	94.8
NC[C@H]1O[C@H](O[C@H]2[C@H](O)[C@@H](O[C@H]3O[C@H](CO)[C@@H](O)[C@H](N)[C@H]3O)[C@H](N)C[C@@H]2N)[C@H](O)[C@@H](O)[C@@H]1O	77.4
[H]/N=C(/N)N[C@H]1[C@H](O)[C@@H](O)[C@H](O[C@@H]2O[C@@H](C)[C@](O)(C=O)[C@H]2O[C@@H]2O[C@@H](CO)[C@H](O)[C@@H](O)[C@@H]2NC)[C@@H](N/C(N)=N\[H])[C@@H]1O	130

Block 2
Target: tungstate, free oxyanion
Technique: microfluidic competitive inhibition
Sample: in vitro, cell-free expressed
Concentration: not given
Notes: derived from inhibition constants, unchanged parent 2230 nM
Direction: lower = stronger binding
Parent: PafA, mature enzyme, eGFP fusion (Elizabethkingia meningoseptica, UniProt Q9KJX5); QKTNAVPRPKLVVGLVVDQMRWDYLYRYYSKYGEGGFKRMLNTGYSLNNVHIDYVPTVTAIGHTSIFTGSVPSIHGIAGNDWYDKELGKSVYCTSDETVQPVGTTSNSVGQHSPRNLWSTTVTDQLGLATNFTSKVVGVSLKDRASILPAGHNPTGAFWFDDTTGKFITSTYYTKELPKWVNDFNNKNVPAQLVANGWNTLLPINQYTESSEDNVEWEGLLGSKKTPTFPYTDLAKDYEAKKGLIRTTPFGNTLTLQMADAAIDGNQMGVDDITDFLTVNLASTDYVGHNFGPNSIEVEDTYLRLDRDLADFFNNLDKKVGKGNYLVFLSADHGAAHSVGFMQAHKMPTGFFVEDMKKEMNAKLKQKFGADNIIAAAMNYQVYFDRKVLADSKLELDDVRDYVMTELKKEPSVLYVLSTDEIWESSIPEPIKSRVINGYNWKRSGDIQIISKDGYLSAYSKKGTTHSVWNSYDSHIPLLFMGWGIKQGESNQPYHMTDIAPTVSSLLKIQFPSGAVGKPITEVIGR
Change	oxyanion analog dissociation constant
I485V	2.73 µM
L141V	1.86 µM
I204G	2.17 µM
N199V	2.11 µM
N182G	2.22 µM
I499G	1.03 µM
Y32G	1.53 µM
K38G	1.72 µM
K365G	2.56 µM
F313V	1.93 µM
D213G	633 nM
F167V	3.47 µM
A344V	1.87 µM
E489G	1.96 µM
Y325V	2.08 µM
I273V	2.59 µM
Q19G	34.6 µM
W469V	1.4 µM
R115V	2.54 µM
H475V	3.2 µM

Block 3
Target: UDP-N-acetylglucosamine--peptide N-acetylglucosaminyltransferase 110 kDa subunit (OGT, Homo sapiens, UniProt O15294)
Chain of UniProt O15294 (whole entry, looked up): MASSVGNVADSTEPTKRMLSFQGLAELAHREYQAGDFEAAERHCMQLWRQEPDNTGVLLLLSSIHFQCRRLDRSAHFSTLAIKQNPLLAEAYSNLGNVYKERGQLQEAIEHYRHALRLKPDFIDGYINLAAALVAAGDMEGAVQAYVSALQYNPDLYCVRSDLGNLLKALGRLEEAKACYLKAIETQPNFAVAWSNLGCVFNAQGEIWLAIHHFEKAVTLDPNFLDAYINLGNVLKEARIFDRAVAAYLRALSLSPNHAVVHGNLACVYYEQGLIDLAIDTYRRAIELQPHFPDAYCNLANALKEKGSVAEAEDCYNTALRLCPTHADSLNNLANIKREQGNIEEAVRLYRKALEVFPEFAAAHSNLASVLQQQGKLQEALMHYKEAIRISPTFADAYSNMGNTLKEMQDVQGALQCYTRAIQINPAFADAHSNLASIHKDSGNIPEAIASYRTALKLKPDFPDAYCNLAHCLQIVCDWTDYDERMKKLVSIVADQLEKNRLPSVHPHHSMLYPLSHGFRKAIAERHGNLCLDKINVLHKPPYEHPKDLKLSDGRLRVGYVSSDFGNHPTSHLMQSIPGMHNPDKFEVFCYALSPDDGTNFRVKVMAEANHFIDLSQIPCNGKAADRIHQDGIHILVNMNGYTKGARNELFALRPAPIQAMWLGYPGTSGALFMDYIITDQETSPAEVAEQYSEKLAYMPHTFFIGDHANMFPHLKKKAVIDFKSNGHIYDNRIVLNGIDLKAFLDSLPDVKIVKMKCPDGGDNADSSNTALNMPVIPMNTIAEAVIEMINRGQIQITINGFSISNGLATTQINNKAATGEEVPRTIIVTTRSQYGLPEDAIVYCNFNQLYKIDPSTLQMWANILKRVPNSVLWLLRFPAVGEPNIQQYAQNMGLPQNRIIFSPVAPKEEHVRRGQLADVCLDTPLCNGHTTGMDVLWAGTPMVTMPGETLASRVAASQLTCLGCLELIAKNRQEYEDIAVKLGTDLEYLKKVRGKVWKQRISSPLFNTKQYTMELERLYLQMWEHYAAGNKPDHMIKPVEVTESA
Read-out: binding
Technique: phage display NGS
Form: peptide
Concentration: concentration not given
Reference: input library
Sequence	enrichment fold change
NHAHYATDSHTHNHQ	4.94
TFRTHHFHHDLSQF	9.8
VEHRPHYHHDKQQGT	4.91
HFNQHHHFFAVPPYD	6.43
SVFVHMQHRHGPHY	14.7
NMSDHHRTSYYHVRH	5.92
YRTAHSHDHASHHNH	11.6
DMYEYRYKPHYVIQI	6.57
WGPQHMRHHYAHQHT	5.72
ATRETEPAYQIVYTK	3.24
HLQYPDHPIHEHTHI	12.6
ITSMDYTPAYQLRYS	2.45
WSAVMPQYRIEYNYA	59.3
AQQFFPLYQMNFKAK	2.01

Block 4
Target: Ras GTPase-activating protein-binding protein 1, full length (G3BP1, Homo sapiens, UniProt Q13283)
Chain of UniProt Q13283 (whole entry, looked up): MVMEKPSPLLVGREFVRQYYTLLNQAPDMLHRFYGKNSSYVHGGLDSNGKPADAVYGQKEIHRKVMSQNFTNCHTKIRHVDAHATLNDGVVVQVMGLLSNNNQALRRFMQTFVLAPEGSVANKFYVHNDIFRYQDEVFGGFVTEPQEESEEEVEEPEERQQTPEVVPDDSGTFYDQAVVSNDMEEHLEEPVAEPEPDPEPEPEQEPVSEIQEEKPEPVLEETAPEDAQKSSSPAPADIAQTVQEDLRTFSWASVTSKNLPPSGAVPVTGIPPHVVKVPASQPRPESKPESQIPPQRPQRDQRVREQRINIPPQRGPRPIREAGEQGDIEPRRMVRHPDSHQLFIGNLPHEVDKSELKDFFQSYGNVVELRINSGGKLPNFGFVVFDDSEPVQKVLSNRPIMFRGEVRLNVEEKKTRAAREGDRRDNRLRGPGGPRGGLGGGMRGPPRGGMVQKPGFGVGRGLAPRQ
Technique: RNA Bind-n-Seq
Form: RNA
Sample: in vitro
Concentration: 200 nM
Notes: whole 134-nt RNA, ends assumed
With: 150 mM KCl
Reference: input library
Direction: higher = stronger binding
Constant ends, left off below: GGGAGUUCUACAGUCCGACGAUC … UGGAAUUCUCGGGUGUCAAGG
Sequence	log2 enrichment
CCUGUGCUACACAUCGUAUGUACCGAAUCGGGUUUUUUUGGGGUUUUUUUGGUUUUUUUGGAAAGUAUUAUGUUACGCCGUUCGGAUCUG	-0.711
GUCCUGUGCUACACAUCGUAUGUACCGAAUCGGGGUUUGGGGAAAAAAAGGGGUGGGGAAAGUAUUAUGUUACGCCGUUCGGAUCUGCAC	0.499
UCAAGUCCUGUGCUACACAUCGUAUGUACCGAAUCGGUGGAAAAAGGUUUUUGGAAAGUAUUAUGUUACGCCGUUCGGAUCUGCACUUCC	-0.913
UCAAGUCCUGUGCUACACAUCGUAUGUACCGAAUCGGUUUGGAAAGGUUUUUGGAAAGUAUUAUGUUACGCCGUUCGGAUCUGCACUUCC	-0.781
AAGUCCUGUGCUACACAUCGUAUGUACCGAAUCGGCCCCGGGCCCCGGCCCCGGGGAAAGUAUUAUGUUACGCCGUUCGGAUCUGCACUU	-1.07
UGGGAGGUGGAUUUUGUUUAUUUUUUUAGCUCAUUUCCAGGGGUGGGAAUUUUUUUUUAAUAUGUGUCAUGAAUAAAGUUGUUUUGGAAA	0.331
AAGUCCUGUGCUACACAUCGUAUGUACCGAAUCGGGAAAAGGGAAAAGGAAAAGGGGAAAGUAUUAUGUUACGCCGUUCGGAUCUGCACU	-0.357
CCUCAAGUCCUGUGCUACACAUCGUAUGUACCGAAUCGGUUGGUUGGGGUUGGAAAGUAUUAUGUUACGCCGUUCGGAUCUGCACUUCCA	-0.326

Repeated from above (block 4):
Sequence	log2 enrichment
GUCCUGUGCUACACAUCGUAUGUACCGAAUCGGGGUUUGGGGAAAAAAAGGGGUGGGGAAAGUAUUAUGUUACGCCGUUCGGAUCUGCAC	0.499
UCAAGUCCUGUGCUACACAUCGUAUGUACCGAAUCGGUGGAAAAAGGUUUUUGGAAAGUAUUAUGUUACGCCGUUCGGAUCUGCACUUCC	-0.913
UCAAGUCCUGUGCUACACAUCGUAUGUACCGAAUCGGUUUGGAAAGGUUUUUGGAAAGUAUUAUGUUACGCCGUUCGGAUCUGCACUUCC	-0.781
AAGUCCUGUGCUACACAUCGUAUGUACCGAAUCGGCCCCGGGCCCCGGCCCCGGGGAAAGUAUUAUGUUACGCCGUUCGGAUCUGCACUU	-1.07
UGGGAGGUGGAUUUUGUUUAUUUUUUUAGCUCAUUUCCAGGGGUGGGAAUUUUUUUUUAAUAUGUGUCAUGAAUAAAGUUGUUUUGGAAA	0.331
AAGUCCUGUGCUACACAUCGUAUGUACCGAAUCGGGAAAAGGGAAAAGGAAAAGGGGAAAGUAUUAUGUUACGCCGUUCGGAUCUGCACU	-0.357
CCUCAAGUCCUGUGCUACACAUCGUAUGUACCGAAUCGGUUGGUUGGGGUUGGAAAGUAUUAUGUUACGCCGUUCGGAUCUGCACUUCCA	-0.326
